Results collected from several papers.
Compare with care: the assays were run in different laboratories. Values joined by “and” are separate records of one study, mostly repeats; a detail may differ. ± gives the spread as reported. Bridges are numbered along the chain shown (N, C = ends). Where no end group is shown, it is not given here.

The IC50 of `CC[C@@]1(O)C(=O)OCc2c1cc1n(c2=O)Cc2cc3ccccc3nc2-1` is reported as 1.49 µM (PC-3; cell growth or viability, MTT; 48 h).
The IC50 of `CCCCc1oc2ccccc2c1C(=O)c1cc(I)c(OCCN(CC)CC)c(I)c1` is reported as 13.4 ± 2.1 µM (rabbit alveolar macrophages; surfactant protein A degradation; 1 h).
`CC1=C(CC/C(C)=C/CC/C(C)=C/CCC2=CC(=O)OC2O)C(C)(C)CCC1` (stereo not shown) gave an IC50 of 1.56 µM (LAPC4; AR transcriptional activity, antagonist, PSA promoter luciferase; 24 h).
`CC(=O)NCCCCCC(=O)N[C@@H](CCCNC(=N)N)C(=O)N[C@@H](Cc1c[nH]c2ccccc12)C(=O)N[C@@H](CCC(N)=O)C(=O)N[C@@H](Cc1c[nH]c2ccccc12)C(=O)N[C@@H](CCCNC(=N)N)C(=O)N[C@@H](Cc1c[nH]c2ccccc12)C(=O)N[C@@H](CCC(N)=O)C(=O)N[C@@H](Cc1c[nH]c2ccccc12)C(=O)N[C@@H](CCCNC(=N)N)C(N)=O` has an IC50 of over 122 µM (HT-29; cell growth or viability, MTT).
For `Cc1cc(C)n(C(=S)[S][Au-][P+](c2ccccc2)(c2ccccc2)c2ccccc2)n1`, the IC50 was 8.63 ± 3.77 µM (PHA-P stimulated human PBMC; cell growth, MTT; 3 d).
The IC50 of `glaucarubolone glucoside` is reported as 40.1 ± 3.41 µM (CCD-18Co; viability; 24 h).
`N=C(N)c1ccc(OCCCCCOc2ccc(C(=N)N)cc2)cc1` has an IC50 of 0.08 µM (293FT; cell viability).
For `N.N.[Cl][Pt][Cl]`, the IC50 was 15.6 ± 9.15 µM (H460; cell viability, MTT; 4 h, together with: cimetidine 3 mmol/L).
With `CC(C)c1ccc2c(c1)CC[C@H]1[C@](C)(CN)CCC[C@]21C` the IC50 was 4.83 µM (WM35; cell growth or viability, MTS; 48 h).
With `CCN.CCN.O=C([O-])CC(=O)[O-].O=C([O-])CC(=O)[O-].[Pt+4]` the IC50 was over 200 µM (SW480; cell viability, MTT; 96 h).
The IC50 of `FFPKVAGVAAKVLKKFCTISKKC (disulfide 17-23 (inferred)) (disulfide)` is reported as 4.54 µM (H838; cell viability, MTT).
With `C#CC[C@H](N)C(=O)NCC(=O)NCC(=O)N[C@@H](Cc1ccc(O)cc1)C(=O)N[C@@H](CC(N)=O)C(=O)N[C@@H](CC(C)C)C(=O)N[C@@H](CCCNC(=N)N)C(=O)N1CCC[C@H]1C(=O)N[C@@H](CCCNC(=N)N)C(=O)N[C@H](C(=O)N[C@@H](Cc1ccc(O)cc1)C(=O)N[C@@H](CCC(N)=O)C(=O)N1CCC[C@H]1C(=O)N[C@@H](CCC(N)=O)C(=O)N[C@@H](CCCNC(=N)N)C(=O)N[C@@H](Cc1ccc(O)cc1)C(=O)NCC(=O)NCC(N)=O)[C@@H](C)O` the IC50 was over 200 µM (HEK293; cell growth or viability, MTT).
With `O=C(Cn1cnc2ccccc2c1=O)Nc1ccccc1O` the IC50 was over 100 µM (HepG2.2.15; cell growth or viability, crystal violet; 48 h).
`N.N.[Cl][Pt][Cl]` gave an IC50 of 84.7 ± 1.9 µM (HT-29; cell viability, MTS; 24 h).
For `N.N.[Cl][Pt][Cl]`, the IC50 was 1.6 µM (A2780; cell growth or viability, MTT).
`O=c1c2ccccc2nc(S)n1Cc1cccnc1` has an IC50 of over 100 µM (HEK293; cell growth or viability, crystal violet; 48 h).
`N.N.[Cl][Pt][Cl]` gave an IC50 of 17.2 µM (MRC5; cell growth or viability, MTT; 72 h).
With `CC(/C=C/C(C)=C/[C@@H]1Cc2nc(cs2)CCCCC(=O)O[C@@H](C)C/C(C)=C/C=C\C(=O)O1)=C\CN(C)C` the IC50 was 4.54 ± 1.92 µM (primary CLL cells; apoptosis, annexin V/PI staining; 24 h, 10% human plasma).
With `C[C@H](NP(=O)(N[C@@H](C)C(=O)OCc1ccccc1)OC[C@H]1O[C@@H](n2cnc(C(N)=O)c2N)[C@H](O)[C@@H]1O)C(=O)OCc1ccccc1` the IC50 was over 250 µM (human T-lymphocyte; cell growth or viability; 72 h).
`CN1CCC2(CC1)c1ccccc1N(Cc1ccc(C(=O)NO)cc1)C2c1ccccc1` (racemic) gave an IC50 of 0.00173 µM (IPF patient basal cells; bronchosphere formation, 3D organoid and MTT; 14 days).
With `COc1cc2c(c(OC)c1OC)-c1ccc(N)c(=O)cc1[C@@H](NC(C)=O)CC2` the IC50 was 0.064 ± 0.028 µM (MCF7 MT1-MMP negative; cell viability, MTT; 24 h exposure, read 96 h post treatment).
`O=P12CN3CN(CN(C3)C1)C2` gave an IC50 of over 500 µM (Jurkat; cytotoxicity, MTT; 24 h, 1% DMSO).
For `O=C1[O][Pt]2([NH][C@@H]3CCCC[C@H]3[NH]2)[O]C1=O`, the IC50 was 21.5 ± 0.88 µM (H22; CCK-8; 24 h).
The IC50 of `CC/C(=C(\c1ccccc1)c1ccc(OCCNC)cc1)c1ccccc1` is reported as 0.7 µM (cultured mouse DRG neurons; action potential peak amplitude, current clamp; 2 to 4 min, together with: 80 pA current injection).
The IC50 of `[Cl][Cd][Cl]` is reported as 41 µM (Caco-2 monolayers; viability, MTT; 48 h, repeated daily dosing).
`[Cl][Cd][Cl]` has an IC50 of 10.2 µM (ReNcell VM, differentiated, astrocytic; cell viability, live/dead staining; 3D alginate microarray; 24 h exposure then 48 h recovery, 6 days without growth factors).
The IC50 of `CC(=C[n+]1ccc(-c2ccccc2)cc1)c1ccccc1` is reported as ~23 µM and 23 µM (MN9D; cell viability, MTT; 18 h).
For `C=C(C)[C@H]1Cc2c(ccc3c2O[C@@H]2COc4cc(OC)c(OC)cc4[C@@H]2C3=O)O1`, the IC50 was 0.026 ± 0.011 µM (HEK293; oxygen consumption).
For `O=C1C2=C(OC(Cn3cc(C[Se]c4ccccc4)nn3)C2)C(=O)c2ccccc21` (stereo not shown), the IC50 was 0.62 to 2.42 µM (six human cancer cell lines; MTT; 72 h, range over cell lines).
`N.N.[Cl][Pt][Cl]` gave an IC50 of 32.6 µM (HAF; cell growth or viability, SRB).
`Nc1nc2c(ncn2COCCO)c(=O)[nH]1` has an IC50 of over 250 µM (CCRF-CEM; cell growth or viability).
The IC50 of `O=C(Cn1cnc2ccccc2c1=O)Nc1nccs1` is reported as 79.5 µM (HepG2.2.15; cell growth or viability, crystal violet; 48 h).
`Pertussis toxin` gave an IC50 of 0.0001 µM (LAD2 mast cells; β-hexosaminidase release; 2 h pretreatment, together with: substance P, 30 min).
`C[C@H]1[C@H](OC(=O)CCC(=O)Oc2ccc(CCO)cc2)O[C@@H]2O[C@@]3(C)CC[C@H]4[C@H](C)CC[C@@H]1[C@@]24OO3` gave an IC50 of 81.7 ± 5.7 µM (RPMI-7951; cell viability, MTT; 24 h, together with: deferoxamine 20 µM, 1 h before).
